Measured values collected from several papers.
Protocols differ between the studies behind these lines. “And” joins repeats or separate records; there may be more than shown. Numbers after ± are the reported error.
Phospholipase D1: Phospholipase D1 (Homo sapiens, UniProt Q13393)
Chain of UniProt Q13393 (whole entry, looked up): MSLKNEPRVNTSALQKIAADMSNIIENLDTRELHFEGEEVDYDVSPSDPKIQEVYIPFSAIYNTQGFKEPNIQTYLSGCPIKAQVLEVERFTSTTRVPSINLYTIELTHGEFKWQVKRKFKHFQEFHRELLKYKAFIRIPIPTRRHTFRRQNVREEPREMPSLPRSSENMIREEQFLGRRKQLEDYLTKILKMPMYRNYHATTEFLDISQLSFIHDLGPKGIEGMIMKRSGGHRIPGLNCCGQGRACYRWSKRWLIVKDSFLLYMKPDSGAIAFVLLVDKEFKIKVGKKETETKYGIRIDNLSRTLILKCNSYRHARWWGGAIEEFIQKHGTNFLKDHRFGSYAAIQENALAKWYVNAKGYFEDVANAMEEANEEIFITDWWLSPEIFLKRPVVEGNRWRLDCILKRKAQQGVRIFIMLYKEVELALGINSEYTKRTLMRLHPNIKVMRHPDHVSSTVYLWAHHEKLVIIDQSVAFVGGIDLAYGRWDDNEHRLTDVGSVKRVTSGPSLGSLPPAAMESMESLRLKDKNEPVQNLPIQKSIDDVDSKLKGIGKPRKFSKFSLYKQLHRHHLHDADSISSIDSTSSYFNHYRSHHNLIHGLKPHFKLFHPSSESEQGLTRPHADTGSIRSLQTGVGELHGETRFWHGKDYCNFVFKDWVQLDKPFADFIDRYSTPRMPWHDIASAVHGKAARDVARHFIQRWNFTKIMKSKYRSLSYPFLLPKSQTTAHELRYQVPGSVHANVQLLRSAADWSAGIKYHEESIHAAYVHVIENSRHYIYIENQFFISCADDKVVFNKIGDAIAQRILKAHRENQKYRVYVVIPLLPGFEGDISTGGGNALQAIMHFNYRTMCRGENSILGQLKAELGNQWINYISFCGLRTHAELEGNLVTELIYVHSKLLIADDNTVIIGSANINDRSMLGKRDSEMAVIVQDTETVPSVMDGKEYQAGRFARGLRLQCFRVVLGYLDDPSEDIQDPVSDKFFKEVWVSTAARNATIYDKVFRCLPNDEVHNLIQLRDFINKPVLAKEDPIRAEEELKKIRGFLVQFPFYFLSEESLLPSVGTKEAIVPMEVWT
HDAC2: Histone deacetylase 2 (HDAC2, Homo sapiens, UniProt Q92769)
Chain of UniProt Q92769 (whole entry, looked up): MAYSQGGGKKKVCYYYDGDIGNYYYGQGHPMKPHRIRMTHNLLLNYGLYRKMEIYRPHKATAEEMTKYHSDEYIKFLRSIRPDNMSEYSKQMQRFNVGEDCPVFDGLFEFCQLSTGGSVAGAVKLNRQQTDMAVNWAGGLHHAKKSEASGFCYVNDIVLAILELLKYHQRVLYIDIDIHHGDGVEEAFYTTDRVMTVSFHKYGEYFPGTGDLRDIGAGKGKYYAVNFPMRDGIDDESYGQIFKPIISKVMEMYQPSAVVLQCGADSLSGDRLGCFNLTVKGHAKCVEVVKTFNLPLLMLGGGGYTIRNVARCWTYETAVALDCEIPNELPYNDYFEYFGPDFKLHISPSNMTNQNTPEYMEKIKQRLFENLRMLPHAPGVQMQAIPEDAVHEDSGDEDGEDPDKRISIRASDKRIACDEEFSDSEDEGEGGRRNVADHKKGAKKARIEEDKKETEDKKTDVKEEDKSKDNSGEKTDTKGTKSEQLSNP
Chain of UniProt P20231 (whole entry, looked up): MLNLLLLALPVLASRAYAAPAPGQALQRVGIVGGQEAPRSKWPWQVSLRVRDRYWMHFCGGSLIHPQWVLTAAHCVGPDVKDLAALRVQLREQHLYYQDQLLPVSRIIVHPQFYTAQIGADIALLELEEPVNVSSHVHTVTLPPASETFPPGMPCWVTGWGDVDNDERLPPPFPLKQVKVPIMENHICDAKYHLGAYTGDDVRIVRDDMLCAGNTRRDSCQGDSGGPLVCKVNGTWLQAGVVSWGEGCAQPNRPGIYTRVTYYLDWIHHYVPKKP
Chain of UniProt Q96RJ0 (whole entry, looked up): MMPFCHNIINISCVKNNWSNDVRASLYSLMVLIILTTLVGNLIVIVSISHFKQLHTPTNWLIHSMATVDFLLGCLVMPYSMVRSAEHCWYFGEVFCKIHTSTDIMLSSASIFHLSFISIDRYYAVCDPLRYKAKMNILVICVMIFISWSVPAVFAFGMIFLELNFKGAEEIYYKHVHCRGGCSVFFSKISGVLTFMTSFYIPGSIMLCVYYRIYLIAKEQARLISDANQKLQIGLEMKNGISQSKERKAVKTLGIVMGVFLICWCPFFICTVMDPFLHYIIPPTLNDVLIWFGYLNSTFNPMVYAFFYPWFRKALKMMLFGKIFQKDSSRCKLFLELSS
Chain of UniProt O43148 (whole entry, looked up): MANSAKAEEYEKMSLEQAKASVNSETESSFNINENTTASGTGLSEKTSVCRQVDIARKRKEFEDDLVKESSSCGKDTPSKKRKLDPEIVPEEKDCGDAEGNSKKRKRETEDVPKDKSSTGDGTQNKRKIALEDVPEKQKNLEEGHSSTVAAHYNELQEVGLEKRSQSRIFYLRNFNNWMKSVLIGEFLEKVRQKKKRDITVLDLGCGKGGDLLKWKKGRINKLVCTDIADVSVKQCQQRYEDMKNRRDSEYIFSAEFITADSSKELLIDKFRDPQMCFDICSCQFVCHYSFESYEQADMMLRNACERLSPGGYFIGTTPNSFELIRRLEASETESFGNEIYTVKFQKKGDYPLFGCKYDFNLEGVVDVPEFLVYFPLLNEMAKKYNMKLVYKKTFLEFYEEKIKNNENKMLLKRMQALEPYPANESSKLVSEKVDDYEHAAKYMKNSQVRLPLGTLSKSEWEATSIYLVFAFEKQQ
Chain of UniProt P05804 (whole entry, looked up): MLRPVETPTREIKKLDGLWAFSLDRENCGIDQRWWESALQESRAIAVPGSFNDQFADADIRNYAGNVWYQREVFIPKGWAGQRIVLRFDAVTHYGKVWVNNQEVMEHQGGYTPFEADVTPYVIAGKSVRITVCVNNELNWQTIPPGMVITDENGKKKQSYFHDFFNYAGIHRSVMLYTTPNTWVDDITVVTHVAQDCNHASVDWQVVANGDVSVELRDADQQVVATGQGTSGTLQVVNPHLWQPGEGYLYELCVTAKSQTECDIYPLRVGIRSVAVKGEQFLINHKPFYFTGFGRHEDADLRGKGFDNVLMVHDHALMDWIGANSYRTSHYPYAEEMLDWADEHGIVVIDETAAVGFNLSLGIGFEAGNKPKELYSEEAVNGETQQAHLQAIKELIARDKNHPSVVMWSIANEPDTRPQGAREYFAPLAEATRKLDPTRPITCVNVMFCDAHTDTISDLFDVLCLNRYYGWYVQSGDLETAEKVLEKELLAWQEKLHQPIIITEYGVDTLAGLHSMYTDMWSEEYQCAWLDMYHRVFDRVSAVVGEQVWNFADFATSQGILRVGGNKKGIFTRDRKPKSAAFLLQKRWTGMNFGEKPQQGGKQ
Chain of UniProt Q8E0N2 (whole entry, looked up): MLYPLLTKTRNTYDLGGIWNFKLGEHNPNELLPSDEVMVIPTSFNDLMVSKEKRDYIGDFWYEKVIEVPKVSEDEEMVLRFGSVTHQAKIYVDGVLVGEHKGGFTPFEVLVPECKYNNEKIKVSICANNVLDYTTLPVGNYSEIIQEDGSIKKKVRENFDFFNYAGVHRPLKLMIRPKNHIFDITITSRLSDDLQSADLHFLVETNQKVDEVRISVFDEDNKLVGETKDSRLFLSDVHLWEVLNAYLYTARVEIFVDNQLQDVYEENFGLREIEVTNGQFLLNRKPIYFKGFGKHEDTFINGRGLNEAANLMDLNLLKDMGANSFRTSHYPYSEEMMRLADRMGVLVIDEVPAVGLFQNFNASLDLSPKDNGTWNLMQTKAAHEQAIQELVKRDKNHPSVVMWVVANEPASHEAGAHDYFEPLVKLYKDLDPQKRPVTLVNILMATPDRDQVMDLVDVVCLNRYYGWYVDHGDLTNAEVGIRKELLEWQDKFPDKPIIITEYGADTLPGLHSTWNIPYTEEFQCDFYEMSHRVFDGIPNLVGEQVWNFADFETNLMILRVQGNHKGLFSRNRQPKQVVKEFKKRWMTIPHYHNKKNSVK
Chain of UniProt P04228 (whole entry, looked up): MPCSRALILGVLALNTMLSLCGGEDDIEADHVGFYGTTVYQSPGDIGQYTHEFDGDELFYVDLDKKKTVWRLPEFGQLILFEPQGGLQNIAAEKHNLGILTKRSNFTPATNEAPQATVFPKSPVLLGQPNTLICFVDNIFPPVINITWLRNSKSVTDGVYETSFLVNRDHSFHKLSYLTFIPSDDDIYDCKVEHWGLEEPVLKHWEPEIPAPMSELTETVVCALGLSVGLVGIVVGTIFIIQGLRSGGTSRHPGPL
Chain of UniProt Q9UM07 (whole entry, looked up): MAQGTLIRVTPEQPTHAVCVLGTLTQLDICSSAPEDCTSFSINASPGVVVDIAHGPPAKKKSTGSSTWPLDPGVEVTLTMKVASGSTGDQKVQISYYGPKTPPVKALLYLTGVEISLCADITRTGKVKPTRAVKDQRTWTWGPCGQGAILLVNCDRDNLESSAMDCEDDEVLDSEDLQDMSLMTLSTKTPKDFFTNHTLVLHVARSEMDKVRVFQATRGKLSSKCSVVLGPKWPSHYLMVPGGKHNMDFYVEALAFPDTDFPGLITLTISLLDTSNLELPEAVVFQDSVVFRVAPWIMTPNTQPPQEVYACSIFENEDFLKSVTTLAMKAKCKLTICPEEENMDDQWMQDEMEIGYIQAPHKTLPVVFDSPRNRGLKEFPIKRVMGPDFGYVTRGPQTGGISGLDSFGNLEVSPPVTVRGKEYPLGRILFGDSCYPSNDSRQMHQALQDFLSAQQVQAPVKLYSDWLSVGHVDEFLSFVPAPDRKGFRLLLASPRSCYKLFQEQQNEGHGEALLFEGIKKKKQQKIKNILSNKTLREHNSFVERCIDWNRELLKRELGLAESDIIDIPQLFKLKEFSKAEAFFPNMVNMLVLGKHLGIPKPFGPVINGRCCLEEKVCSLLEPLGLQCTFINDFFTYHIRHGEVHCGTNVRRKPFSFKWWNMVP

SMILES	target	test	test system	setting	IC50
CC(=O)N[C@@H](CCCCN)C(=O)N[C@@H](CCCCN)C(=O)N[C@@H](C)C(=O)N[C@H](C(=O)N[C@@H](CCC(N)=O)C(=O)N[C@@H](C)C(=O)N[C@@H](CO)C(=O)N[C@@H](CCC(N)=O)C(=O)N[C@@H](CCC(=O)O)C(=O)N[C@@H](Cc1ccc(O)cc1)C(=O)O)[C@@H](C)O	Mediator of DNA damage checkpoint protein 1 (Homo sapiens, UniProt Q14676)	photo-cross-linking, competitor, photo-cross-linking competition		added: photo-cross-linking probe peptide	> 300 µM
O=C1NC(=O)C(=Cc2ccc(-c3ccc(Br)cc3)o2)S1	Serine/threonine-protein kinase B-raf (BRAF, Homo sapiens, UniProt P15056)	enzyme activity, inhibitor, ELISA			4.99 µM
CSCC[C@@H]1NC(=O)[C@H]([C@@H](C)O)NC(=O)[C@H](CCCNC(=N)N)NC(=O)CNC(=O)CC[C@@H](C(=O)N[C@@H](C)C(=O)N[C@@H](CCCNC(=N)N)C(=O)N[C@@H](CCCCN)C(=O)N[C@@H](CO)C(=O)N[C@H](C(=O)NCC(=O)NCC(N)=O)[C@@H](C)O)NC(=O)[C@H](CCC(N)=O)NC1=O	Histone-lysine N-methyltransferase SETD7 (SETD7, Homo sapiens, UniProt Q8WTS6)	H3K4 peptide methylation, inhibitor, MALDI-TIMS-TOF MS		30 min, 37 °C, added: H3K4 peptide 10 µM, SAM 30 µM	56.5 µM
N=C(N)NC(=O)c1ccc(C(=O)NCCCC[C@H](NC(=O)[C@H](Cc2c[nH]c3ccccc23)NC(=O)[C@H](CCCCN)NC(=O)CNC(=O)CCC(=O)NN)C(N)=O)[nH]1	Tryptase beta-2 (TPSB2, Homo sapiens, UniProt P20231)			pH 7.4	23.6 µM and ~25 µM
Cc1c(C(=O)Nc2cccc(C(F)(F)F)c2)cc(-c2ccccc2)n1CCCN1CCOCC1	Transient receptor potential cation channel subfamily V member 4 (TRPV4, Homo sapiens, UniProt Q9HBA0)	calcium signal, antagonist			0.0027 µM
CN(C)CP(=O)(O)O	Urease subunit alpha (Sporosarcina pasteurii, UniProt P41020)	enzyme activity, inhibitor, indophenol colorimetric		20 min, pH 7.0, 37 °C, added: 50 mM urea	49 ± 1.7 µM
CSCC[C@H](NC(=O)CNC(=O)[C@H](CCCCN)NC(=O)[C@H](CC(C)C)NC(=O)[C@@H]1CCCN1C(=O)[C@H](CO)NC(=O)[C@H](Cc1c[nH]cn1)NC(=O)[C@H](Cc1c[nH]c2ccccc12)NC(=O)[C@H](CCCNC(=N)N)NC(=O)[C@H](CC(C)C)NC(=O)[C@H](CCCNC(=N)N)NC(=O)[C@H](Cc1c[nH]c2ccccc12)NC(=O)[C@H](CS)NC(=O)CN1CCN(CC(=O)O)CCN(CC(=O)O)CCN(CC(=O)O)CC1)C(=O)O [copper-64 labelled]	PROM1 (Homo sapiens, UniProt O43490)	binding, saturation binding	Huh-7		0.0525 µM
O=C(NCCN1CCC2(CC1)C(=O)NCN2Cc1cccnc1)c1cc2ccccc2[nH]1	Phospholipase D1	enzyme activity, inhibitor			3.6 µM
O=C(CCCCCCC(=O)Nc1ccccc1N=Nc1ccccc1)NO	HDAC2	enzyme activity, inhibitor		trans isomer	0.043 ± 0.01 µM
O=C(NC12CC3CC(CC(C3)C1)C2)c1cc2cc(Cl)ccc2[nH]1	Cytochrome P450 3A4 (CYP3A4, Homo sapiens, UniProt P08684)	enzyme activity, inhibitor		added: VG substrate	20 µM
CNC(=O)C1OC(n2cnc3c(NCc4cccc(I)c4)ncnc32)C(O)C1O (centres unmarked)	Solute carrier organic anion transporter family member 1B3 (SLCO1B3, Homo sapiens, UniProt Q9NPD5)	transport, inhibitor		10 (unit not given), pre-incubation, added: cholecystokinin	12.9 ± 5 µM
N#Cc1c(C(F)(F)F)cc(-c2ccc(Cl)cc2)nc1SCC(=O)N1CCCCC1	Trace amine-associated receptor 1 (TAAR1, Homo sapiens, UniProt Q96RJ0)				> 10 µM
CCC(C)SSc1ncc[nH]1 (centres unmarked)	Genome polyprotein, 2A protease (Human enterovirus 71, UniProt B9VUU3)	protease activity, inhibitor, FRET	Enterovirus A71	no DTT	16.9 ± 9.2 µM
CC(C)[C@H](NC(=O)c1ccc(CNc2nc3c(c(=O)[nH]2)CCC3)cc1)C(=O)NC1COC1	Matrix metalloproteinase-9 (MMP9, Homo sapiens, UniProt P14780)	enzyme activity, inhibitor			> 5 µM
CN(C)c1ccc(C(=O)NCc2ccc(CNC(=O)CS)cc2)cc1	HDAC2	enzyme activity, inhibitor			> 30 µM
Nc1ncnc2c1ncn2[C@@H]1O[C@H](CSCCNC(=O)NCC2CCCCC2)[C@@H](O)[C@H]1O	Histone-lysine N-methyltransferase EHMT2 (EHMT2, Homo sapiens, UniProt Q96KQ7)	enzyme activity, inhibitor, radiometric			> 50 µM
C1CCc2c(c(N3CCOCC3)nc3sc4c(N5CCOCC5)nnnc4c23)C1	Beta-glucuronidase (Streptococcus agalactiae serotype V, UniProt Q8E0N2)		Streptococcus agalactiae		> 100 µM
O=C(NCCN1CCC2(CC1)C(=O)NCN2Cc1ccccc1F)c1ccc2ccccc2c1	Phospholipase D1	enzyme activity, inhibitor			4.59 µM
C[C@H]1CN(Cc2ccc(C(F)(F)F)cc2N2C3CCC2CN(CC(=O)O)C3)CCN1C(=O)n1ccc(S(=O)(=O)N(C)C)n1	ABHD17B (Homo sapiens, UniProt Q5VST6)	cell-free assay, inhibitor		lysate	0.21 µM

SMILES	target	test	test system	setting	IC50
CC[C@H](C)[C@@H]1NC(=O)[C@H](Cc2ccccc2)NC(=O)[C@H](CC(N)=O)NC(=O)[C@@H](NC(=O)[C@@H](NC(=O)[C@H](CO)NC(=O)[C@@H](N)Cc2ccc(O)cc2)[C@@H](C)O)CSC(=O)[C@H](CCSC)NC1=O	Accessory gene regulator protein C (Staphylococcus aureus, UniProt Q309Z2)				0.0028 µM
C1CCc2c(c(N3CCOCC3)nc3sc4c(N5CCNCC5)nnnc4c23)C1	Beta-glucuronidase (uidA, Escherichia coli, UniProt P05804)	enzyme activity, inhibitor, absorbance		pH 7.5	0.117 µM
CC[C@H](C)[C@H](NC(=O)[C@@H](N)Cc1ccc(O)cc1)C(=O)N[C@@H](Cc1ccccc1)C(=O)N[C@@H](CC(N)=O)C(=O)N[C@@H](CC(C)C)C(=O)O	Kappa-type opioid receptor (Oprk1, Rattus norvegicus, UniProt P34975)	radioligand binding, inhibitor	rat brain membranes	added: [3H]U69593	0.000185 ± 1.1e-15 µM
Nn1c(-c2ccc(-n3nc(-c4ccccc4O)nc3-c3ccccc3O)cc2)n[nH]c1=S	5-lipoxygenase				0.84 ± 0.05 µM
O=C1c2ccccc2[Se](=O)N1c1ccccc1 (centres unmarked)	Histone deacetylase 11 (HDAC11, Homo sapiens, UniProt Q96DB2)	enzyme activity, inhibitor, fluorescence			> 10 µM
O=C(O)CNCC(=O)O	IMP-28 metallo-beta-lactamase	enzyme activity, inhibitor, FC5 fluorescent substrate		60 pM enzyme, 1 µM ZnSO4	> 200 µM
N[C@H](C(=O)N1CCCC1)C1CCN(c2nccc3c(-c4ncc(Cl)cc4Cl)cccc23)CC1	Protein-arginine deiminase type-4 (PADI4, Homo sapiens, UniProt Q9UM07)	enzyme activity, GDH-coupled		added: Ca2+ 1.5 mM	0.694 µM
CC[C@H](C)[C@H](NC(=O)[C@@H]1CSCC(=O)NCCCC[C@H](NC(=O)[C@H](Cc2ccc(O)cc2)NC(=O)CNC(C)=O)C(=O)N[C@@H](CO)C(=O)N[C@@H](CCCNC(=N)N)C(=O)N[C@@H](CO)C(=O)N[C@@H](Cc2ccc(O)cc2)C(=O)N2CCC[C@H]2C(=O)N2CCC[C@H]2C(=O)N[C@@H](C(C)C)C(=O)N1)C(=O)N1CCC[C@H]1C(=O)N[C@@H](CC(=O)O)C(N)=O	Mannan-binding lectin serine protease 2 (Homo sapiens, UniProt O00187)	C3 deposition, inhibitor, ELISA	100-fold diluted human serum	30 min preincubation	18.5 µM
C[C@]12CC[C@@H]3c4ccc(O)c(Cl)c4CC[C@H]3[C@@H]1CCC2=O	Aldo-keto reductase family 1 member C2 (AKR1C2, Homo sapiens, UniProt P52895)	enzyme activity, inhibitor, absorbance		pH 9	5.3 µM
O=C(O)c1cscn1	4-diphosphocytidyl-2-C-methyl-D-erythritol kinase (ispE, Klebsiella pneumoniae subsp. pneumoniae, UniProt A6TAP2)	enzyme activity, PK/LDH coupled spectrophotometric			296 ± 13.8 µM
CC(C)C[C@H](NC(=O)[C@H](CO)NC(=O)[C@H](Cc1ccc(O)cc1)NC(=O)CNC(=O)[C@H](CCCNC(=N)N)NC(=O)[C@H](Cc1ccc(O)cc1)NC(=O)[C@@H](N)CC(N)=O)C(=O)NCC(=O)N[C@@H](CC(N)=O)C(N)=O	MHC class II I-A g7 (Mus musculus, UniProt P04228+Q31135)	peptide binding, competitor, competition ELISA		at least 24 h, pH 7.0, room temperature, added: biotinylated HEL 10-23 200 nM	> 50 µM
CC(=O)[C@H]1CC[C@H]2[C@@H]3CC=C4C[C@@H](OS(=O)(=O)O)CC[C@]4(C)[C@H]3CC[C@]12C	Short transient receptor potential channel 5 (TRPC5, Homo sapiens, UniProt Q9UL62)	ion current, patch clamp			19 µM
CC(C)[C@H](NC(=O)[C@H](CO)NC(=O)[C@@H](N)CC(=O)O)C(=O)N[C@H]1CSC(=O)[C@H](Cc2ccccc2)NC(=O)[C@H](Cc2ccc(O)cc2)NC(=O)[C@H](CO)NC(=O)[C@H](C)NC1=O	accessory gene regulator protein C (Staphylococcus aureus, UniProt O33587)				> 1 µM
CC[C@H](C)[C@H](NC(=O)[C@H](Cc1c[nH]cn1)NC(=O)[C@H](Cc1ccc(O)cc1)NC(=O)[C@H](CCC(N)=O)NC(=O)[C@H](CC(N)=O)NC(=O)[C@H](CO)NC(=O)[C@H](CCC(=O)O)NC(=O)[C@H](CO)NC(=O)[C@H](CCC(N)=O)NC(=O)[C@H](CO)NC(=O)[C@H](CCCNC(=N)N)NC(=O)[C@H](CC(N)=O)NC(=O)[C@H](Cc1c[nH]cn1)NC(C)=O)C(=O)N[C@@H](CO)C(=O)N[C@@H](CCC(N)=O)C(=O)N1CCC[C@H]1C(=O)N[C@@H](CO)C(=O)N[C@@H](CC(C)C)C(=O)N[C@@H](CC(=O)O)C(=O)N[C@@H](CO)C(=O)N[C@@H](CC(C)C)C(=O)N[C@@H](Cc1c[nH]cn1)C(=O)N[C@@H](CO)C(=O)N[C@H](C(=O)N[C@@H](CC(C)C)C(=O)N[C@@H](CO)C(=O)N[C@@H](CCSC)C(=O)N1CCC[C@H]1C(=O)N1CCC[C@H]1C(=O)N[C@@H](CC(C)C)C(=O)N[C@@H](CCCNC(=N)N)C(=O)N[C@@H](CC(=O)O)C(=O)N[C@@H](CCCNC(=N)N)C(=O)N[C@@H](CC(N)=O)C(=O)N[C@@H](CC(C)C)C(=O)N1CCC[C@H]1C(=O)N[C@@H](C)C(=O)N[C@@H](CO)C(=O)N[C@@H](Cc1ccccc1)C(=O)N[C@@H](Cc1ccccc1)C(=O)N[C@@H](CCCNC(=N)N)C(=O)N[C@@H](CO)C(=O)N1CCC[C@H]1C(N)=O)[C@@H](C)O	Transcriptional enhancer factor TEF-3 (TEAD4, Homo sapiens, UniProt Q15561)	protein-protein interaction, inhibitor, TR-FRET			107 µM
Cc1ccc(C(C)C)cc1.[Au][S]C1=NCCS1.[Cl][Ru][Cl].c1ccc(P(CP(c2ccccc2)c2ccccc2)c2ccccc2)cc1	Cathepsin B (CTSB, Homo sapiens, UniProt P07858)	inhibitor		10 min preincubation, pH 6, room temperature, added: Z-FR-AMC	190 µM
OC[C@H]1O[C@@H](Oc2cc3c(O)cc(O)cc3[o+]c2-c2ccc(O)c(O)c2)[C@H](O)[C@@H](O)[C@@H]1O	mRNA cap guanine-N(7) methyltransferase, with RAM (RNMT, Homo sapiens, UniProt O43148)	N7-methyltransferase activity, inhibitor, Py-FLINT		RNMT-RAM complex, added: SAM 20 µM	5.25 ± 0.58 µM
CCCCn1nnc(-c2cccc(NC(=O)[C@H](C)CS)c2)n1	Metallo-beta-lactamase VIM-2 (VIM-2, Escherichia coli, UniProt Q5U7L7)	enzyme activity, inhibitor, fluorescence		with preincubation	0.0251 µM
NC[C@@H]1[C@@H](O)[C@@H](O)[C@H]2[C@H](O)CCN21	Alpha-mannosidase 2 (Homo sapiens, UniProt Q16706)	enzyme activity, inhibitor, 4-MU fluorogenic		added: Man-α-4MU 5 mM	> 200 µM
CC(Cc1ccccc1Sc1ccccc1)N(C)C (centres unmarked)	Sodium-dependent dopamine transporter (SLC6A3, Homo sapiens, UniProt Q01959)	transporter uptake, inhibitor, radiometric			0.72 µM

Excerpt of the above:
SMILES	target	test	test system	setting	IC50
OC[C@H]1O[C@@H](Oc2cc3c(O)cc(O)cc3[o+]c2-c2ccc(O)c(O)c2)[C@H](O)[C@@H](O)[C@@H]1O	mRNA cap guanine-N(7) methyltransferase, with RAM (RNMT, Homo sapiens, UniProt O43148)	N7-methyltransferase activity, inhibitor, Py-FLINT		RNMT-RAM complex, added: SAM 20 µM	5.25 ± 0.58 µM
CCCCn1nnc(-c2cccc(NC(=O)[C@H](C)CS)c2)n1	Metallo-beta-lactamase VIM-2 (VIM-2, Escherichia coli, UniProt Q5U7L7)	enzyme activity, inhibitor, fluorescence		with preincubation	0.0251 µM
NC[C@@H]1[C@@H](O)[C@@H](O)[C@H]2[C@H](O)CCN21	Alpha-mannosidase 2 (Homo sapiens, UniProt Q16706)	enzyme activity, inhibitor, 4-MU fluorogenic		added: Man-α-4MU 5 mM	> 200 µM
